# Measurements from different studies.
# Parts stem from different laboratories: compare values within a part only.

# Block 1 — technique: aptamer microarray, sandwich; form: DNA with 2'F-ANA; sample: in vitro; tested at: 200 nM; added: Cy3 exosite-II aptamer, 400 nM; reading: higher = stronger binding; strand: GGTTGGTGTGGTTGG
# Target: Prothrombin, mature alpha-thrombin (F2, Homo sapiens, UniProt P00734)
# Notes: whole 15-mer aptamer, many near background
Modification,mean fluorescence intensity
2'F-ANA at 1 5 6 8 10 11 12 14,53 a.u.
2'F-ANA at 1 2 3 4 5 6 8 9 10 13 14,48.4 a.u.
2'F-ANA at 2 3 4 5 6 8 9 10 11 12,51.3 a.u.
2'F-ANA at 2 3 4 5 7 8 11 12 14,53.5 a.u.
2'F-ANA at 1 4 5 7 8 9 12,124 a.u.
2'F-ANA at 2 7 9 10,136 a.u.
2'F-ANA at 2 7 10 11 13 14,82 a.u.
2'F-ANA at 1 2 3 4 10 11 12,72.7 a.u.
2'F-ANA at 2 3 4 5 8 9 11 12 15,155 a.u.
2'F-ANA at 1 4 5 6 7 8 9 10 11 12 13 14 15,55.8 a.u.
2'F-ANA at 1 2 3 7 11 12 15,374 a.u.
2'F-ANA at 1 2 4 6 11 12 14 15,60.1 a.u.
2'F-ANA at 1 2 3 4 8 12 13 15,357 a.u.
2'F-ANA at 3 4 6 7 8 11 13 15,514 a.u.
2'F-ANA at 1 2 3 4 6 7 9 10 11 13,87.3 a.u.
2'F-ANA at 1 2 4 7 8 9 10 11 12 14,147 a.u.
2'F-ANA at 1 2 8 9 10 11 14,47.4 a.u.
2'F-ANA at 4 5 7 8 9 11 14 15,43.7 a.u.
2'F-ANA at 2 3 8 12 14,518 a.u.
2'F-ANA at 1 2 6 9 13,107 a.u.
2'F-ANA at 1 4 7 8 9 10 11 12,62.5 a.u.
2'F-ANA at 3 5 6 9 12 14 15,58.5 a.u.
2'F-ANA at 2 3 6 11 12 13 14 15,348 a.u.

# Block 2 — technique: RNA Bind-n-Seq; form: RNA; sample: in vitro; tested at: 365 nM; baseline: no-protein control; reading: higher = stronger binding
# Target: RNA binding protein fox-1 homolog 2, RRM domain, GST-SBP tag (RBFOX2, Homo sapiens, UniProt O43251-10, residues 100-194)
# Notes: natural RNA segment, single round, ends assumed
# Target sequence (chain): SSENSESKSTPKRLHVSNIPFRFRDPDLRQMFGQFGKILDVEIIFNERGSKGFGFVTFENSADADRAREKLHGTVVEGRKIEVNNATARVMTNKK
Strand,RBNS enrichment (R)
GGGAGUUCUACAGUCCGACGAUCGUUUCUCCACAGUCCUCUUCUGGGCAAAUUCUUGUUUCUUCACAUGCUGGACUAGCUUAAGACCAAUGCAGUAGCUUAUUUCCAAGCCUUGCAAAGUAUAUAAUAUCUAAUGGAAUUCUCGGGUGCCAA,0.577
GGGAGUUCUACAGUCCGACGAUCGUACAUCUAACUAGGACUCAGAAAGAGCUCCUGCGCAUGGUCAUAGAACAAUGGCGUUCUGUAAUUUCCUUCAUUCUGCUUCAUAGUUGCUGACAUCUCAGAGACGCCAUUGGAAUUCUCGGGUGCCAA,17.5
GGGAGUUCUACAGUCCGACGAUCUAGCCCUGAGGUAGUCAGGGCUAGCUCCGGAUGGCUGGAGAAGCUGACCUUGUGCCUUAAGUCUACUAGUGCCUGAUGGAGCCACCCUCAUAGGGCUGAACCAGUGGGGCUGGAAUUCUCGGGUGCCAA,0.258
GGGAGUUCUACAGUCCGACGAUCCCUGGACGUGAGCUUCCCGCGGUGGCAGAACCGAAUGCUUUCUUCCCCCUCUCCUUCCUCCCCAGUGAGUUCACUUGCCAUUCGGGCACACUGGGUUAUUUCUCCGUCCUUGGAAUUCUCGGGUGCCAA,7.36
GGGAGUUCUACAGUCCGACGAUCUGCAAGCCCGUAACCCUCCAGAGCUCCUUCACACUGCGCUCUCCAAACCACCCCAUCCUCACAGCGAGCUUAUCCCUACCUCUGCGUGACACUGAGCAGGCAGAUUAGCAUGGAAUUCUCGGGUGCCAA,1.67
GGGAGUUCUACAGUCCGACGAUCCAGGCCCUCAAGCCCAAGAGCCAUCCCAGGCCUGUUCAGGCCUCAGCUAAGCCUCUCUUCAUCUGGAAGAAGAGGCAAGGGGGCAGGAGACCAGGCUCUAGCUCUGGGCCUGGAAUUCUCGGGUGCCAA,0.269
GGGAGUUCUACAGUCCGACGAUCAAAGGAAUGAAGGAACCUCCCUCCCUGAAAGCUUUUCCUGCUUCUGAGACUGUGUUCAGCCCUUUCCCCUAUAAAUUGAUAGGAACUGUGUGUCCACCUUUCCAAAGAAAUGGAAUUCUCGGGUGCCAA,0.474
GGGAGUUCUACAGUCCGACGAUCAUCCCUAUACCAUCCCACCCUGUUGUAUGUAUUAUAGGAUUUGUAUUUUCUUCUCCUCCCCUCCUCUUCCUCCUUUCUCUUUGCAUUCAAGAUUAUGAAACUUUGCUGUGUGGAAUUCUCGGGUGCCAA,1.62

# Block 3 — technique: RNA Bind-n-Seq; form: RNA; sample: in vitro; tested at: not given; notes: RNA with constant flanks, ends assumed; baseline: input RNA pool; reading: higher = stronger binding
# Target: RING finger protein unkempt homolog, zinc fingers 1-6, GST-SBP tag (UNK, Homo sapiens, UniProt Q9C0B0, residues 30-357)
# Sequence of UniProt Q9C0B0 (30-357, looked up): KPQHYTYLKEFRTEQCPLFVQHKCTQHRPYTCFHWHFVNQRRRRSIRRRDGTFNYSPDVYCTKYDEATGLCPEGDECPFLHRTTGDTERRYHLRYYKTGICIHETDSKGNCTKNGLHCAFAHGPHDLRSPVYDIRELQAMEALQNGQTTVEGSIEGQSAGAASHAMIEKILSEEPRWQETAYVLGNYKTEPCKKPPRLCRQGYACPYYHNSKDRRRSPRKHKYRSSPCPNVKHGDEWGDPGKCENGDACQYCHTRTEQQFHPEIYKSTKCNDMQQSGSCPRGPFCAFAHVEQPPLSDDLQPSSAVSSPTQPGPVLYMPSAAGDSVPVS
Strand,bound/input enrichment
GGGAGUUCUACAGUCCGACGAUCGGACAGAACAGUAAACUAAGCAGACUGUGACCAUUGGCCUCCCACUAGCCAGGAUCAACUCCGCUCUCCUUUUGUGGUCCAUGUGCUGCAUCGUCUGCCAUCAGUGUGCAACCGGCCCCCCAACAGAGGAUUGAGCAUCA,1.77 ratio
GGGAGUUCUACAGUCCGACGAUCGUGACUCUUGUAUGUAAUCCUGUGGCUUAACUACUUCUCCCUCCUUGUCCAGCACUUUUCCCGCUCUCCCGUUCCCCAUCUCCAUUGCUCUGUACUCUUUUCUUUUUUCUUGUGCUGAGACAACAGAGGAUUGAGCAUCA,0.562 ratio
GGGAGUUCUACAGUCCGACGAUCUGGACAGAAAAAAUAAUGAAACAAACUGAAGUGUUAUUGCAGCCAAAUCCAAAUGCCAGGACCGAAGAAUUUGUUUAUGAGAAACUGGAUAGAAAAGCUCCAAGUCGUAUAAACAACCCACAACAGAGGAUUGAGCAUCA,0.496 ratio
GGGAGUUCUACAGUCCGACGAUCUAAUUAUUCACCUUUAGCUUUUGUCUCUUGUGCAUGCUAUCACAGUUUUGCUUGUAUUUUCCGCAUAUGAACAUUUAUAAAGUCACUUUUUUUGUUACUGCAAUUUUGUCUGAUUUAUCCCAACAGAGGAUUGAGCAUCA,3.36 ratio
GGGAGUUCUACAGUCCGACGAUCUUAUGAUUAUUUCAGAGAUCGCGGAUUCAGGUGUGGCUCUAUGAGCAAGUGAAUAUGCGGACCGAAGGCUGUAUCAUUGGUUUUGAUGAGUAUAUGAACCUUGUAUUAGAUGAUGCAGAACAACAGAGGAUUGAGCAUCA,0.569 ratio
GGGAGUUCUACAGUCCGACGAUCGCUGAAUUUGCUGAGUUAAAGACACAGAUAGAGAGACUGAGACUAGAUUACCAGCACGAAACCGAAAGUUUACAGAGUAAACAGGACUCUGAGCGGUCUGCUCAUGCUAAAGAGAUGGAGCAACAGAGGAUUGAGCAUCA,0.449 ratio

# Block 4 — technique: universal PBM; form: double-stranded DNA, one strand shown; sample: in vitro; tested at: 600 nM; reading: higher = stronger binding
# Target: Sal-like protein 4, full length isoform A (SALL4, Homo sapiens, UniProt Q9UJQ4, residues 1-1053)
# Sequence of UniProt Q9UJQ4 (whole entry, looked up): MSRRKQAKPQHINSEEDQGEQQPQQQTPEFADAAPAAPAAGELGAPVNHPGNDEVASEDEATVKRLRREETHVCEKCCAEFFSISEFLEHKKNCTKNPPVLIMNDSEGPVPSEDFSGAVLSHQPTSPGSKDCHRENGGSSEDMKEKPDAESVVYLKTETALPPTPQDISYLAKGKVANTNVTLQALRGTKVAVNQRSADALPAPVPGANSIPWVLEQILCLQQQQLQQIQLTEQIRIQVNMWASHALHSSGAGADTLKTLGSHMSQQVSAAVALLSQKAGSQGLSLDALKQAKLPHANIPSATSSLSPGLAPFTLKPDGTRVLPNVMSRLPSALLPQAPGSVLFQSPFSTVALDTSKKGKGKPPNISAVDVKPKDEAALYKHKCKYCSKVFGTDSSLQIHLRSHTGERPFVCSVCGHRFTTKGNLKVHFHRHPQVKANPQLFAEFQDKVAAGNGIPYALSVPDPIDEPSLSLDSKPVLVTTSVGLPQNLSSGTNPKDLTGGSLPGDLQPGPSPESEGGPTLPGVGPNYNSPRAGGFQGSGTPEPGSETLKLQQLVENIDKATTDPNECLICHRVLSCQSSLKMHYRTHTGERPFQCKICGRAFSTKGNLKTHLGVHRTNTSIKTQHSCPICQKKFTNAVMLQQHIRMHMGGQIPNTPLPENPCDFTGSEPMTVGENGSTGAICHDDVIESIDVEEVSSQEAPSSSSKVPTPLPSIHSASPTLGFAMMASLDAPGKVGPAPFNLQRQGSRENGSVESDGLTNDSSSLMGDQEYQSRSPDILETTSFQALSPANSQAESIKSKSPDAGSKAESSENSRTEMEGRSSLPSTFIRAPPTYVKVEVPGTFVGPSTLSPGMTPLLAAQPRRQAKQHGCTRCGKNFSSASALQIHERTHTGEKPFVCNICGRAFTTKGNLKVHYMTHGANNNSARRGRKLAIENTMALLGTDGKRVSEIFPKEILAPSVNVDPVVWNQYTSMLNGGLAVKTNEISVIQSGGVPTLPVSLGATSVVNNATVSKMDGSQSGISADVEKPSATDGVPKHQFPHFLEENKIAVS
# Notes: 8-mer, flanks averaged, mean of replicates
Strand,E-score
AAGATACT,0.137
AAGCTAGT,0.15
AAAGCGAG,0.107
TTTCAAAA,0.383
GGTACAGA,-0.00439
CAGCACTC,-0.127
AAGTGTAC,0.0716
AGGTCTGG,-0.242
TCTGCTCA,-0.0479
CGTTTCCA,0.124
AATCACGA,0.0402
ATGGAGAG,0.0991
CACGACGA,-0.0934
ACAAGACG,-0.0763
AGGCACAT,0.0266
AGCCCCAG,-0.378
AGGCTAGA,-0.0455
CCCACTCA,0.0333
CCTGTCAA,-0.000515
